Experimental data pooled from the literature.
Parts stem from different laboratories: compare values within a part only. Changes are numbered by the printed parent chain.

Set 1
Target: Histone acetyltransferase KAT6A, winged helix 2, GST fusion (KAT6A, Homo sapiens, UniProt Q92794, residues 85-181)
Technique: protein binding microarray
Form: double-stranded DNA, one strand shown
Matrix: in vitro
Concentration: not given
Setting: 8-mer, flanks averaged, mean of 2 arrays, mostly near background
Relative to: not given
Direction: higher = stronger binding
Target sequence (chain): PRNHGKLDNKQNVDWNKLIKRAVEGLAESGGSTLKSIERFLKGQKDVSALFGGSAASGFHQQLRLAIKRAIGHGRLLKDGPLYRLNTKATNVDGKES
The E-score of `TGCCTAAA` is reported as 0.021.
`ACACGTTG` gave an E-score of -0.113.
The E-score of `GGCCTCAC` is reported as 0.0563.
`CTAGCGAC` gave an E-score of 0.0728.
The E-score of `ATTTGTGC` is reported as -0.0151.
The E-score of `AAGCCAAA` is reported as 0.07.
`AGAAGTAA` has an E-score of -0.0645.
For `GGGATACA`, the E-score was -0.115.
With `AAATAGAA` the E-score was -0.0041.
`GGGCCTAC` gave an E-score of -0.0682.
The E-score of `CGTACTAA` is reported as 0.0204.
For `GGTTGGAC`, the E-score was -0.00176.
`AATGTATG` gave an E-score of -0.081.
`CCGCTTCC` has an E-score of 0.0744.
`TCGGTTCA` gave an E-score of 0.0706.
`CATATAAC` has an E-score of -0.095.
With `ATGTCGCC` the E-score was -0.132.
`CCACTGTA` has an E-score of -0.0862.
`ACGAGATC` gave an E-score of -0.0549.
The E-score of `AAACGACG` is reported as 0.0501.
`AGCGCGGC` gave an E-score of 0.116.
The E-score of `ATGAGCAG` is reported as 0.22.
`AATTTTGC` gave an E-score of 0.0503.
`ATCTCTCC` gave an E-score of -0.0757.
For `TATAGAGA`, the E-score was -0.082.

Set 2
Target: CCNA1, cyclin fold, Cln2 fusion (human)
Technique: yeast growth competition, sequencing
Matrix: yeast
Setting: weak parent motif
Relative to: not given
Direction: higher = stronger binding
Starting sequence: PKMYT1 docking peptide (human); SFEPRNLLSLFED
For `SFEMRNLLSLFED [P4M]`, “normalised enrichment score” read 0.298.
`SFEPRNLLRLFED [S9R]` — result for “normalised enrichment score”: 0.247.
`SFEPRALLSLFED [N6A]` — result for “normalised enrichment score”: 0.0732.
`SFEPRNLLSLAED [F11A]`: “normalised enrichment score” 0.431.
For `SFEPRNLLSLFKD [E12K]`, “normalised enrichment score” read -0.126.
For `SFEPRNLLSLFEV [D13V]`, “normalised enrichment score” read 0.00889.
`SFEPRNLLSLFMD [E12M]` — result for “normalised enrichment score”: -0.234.
For `SFEPRNLLSLFID [E12I]`, “normalised enrichment score” read -0.0225.
`SFERRNLLSLFED [P4R]`: “normalised enrichment score” 0.297.
Under “normalised enrichment score”, `SFEVRNLLSLFED [P4V]` is recorded as 0.00414.
`SFEPPNLLSLFED [R5P]`: “normalised enrichment score” -0.095.
For `SFEPRNLLSVFED [L10V]`, “normalised enrichment score” read 0.242.
For `SFEPRNLLSLFPD [E12P]`, “normalised enrichment score” read 0.0982.
Under “normalised enrichment score”, `SFEPRNGLSLFED [L7G]` is recorded as 0.203.
`SFEPRNLLSYFED [L10Y]`: “normalised enrichment score” 0.106.
For `SFEPRSLLSLFED [N6S]`, “normalised enrichment score” read 0.204.

Set 3
Target: Interferon regulatory factor 5, full length, phosphomimetic (IRF5, Homo sapiens, UniProt Q13568-2, residues 1-514, S451D/S453D/S456D/S462D)
Technique: protein-binding microarray
Form: double-stranded DNA, one strand shown
Matrix: in vitro
Concentration: 940 nM top
Setting: 60-bp whole probe
Together with: salmon DNA 0.4 mg/ml
Relative to: random background probes
Direction: higher = stronger binding
All sequences stand within: GCCTAGCAC … GTCTTGATTCGCTTGACGCTGCTG
`GACGATTTCAGACGGGAGACGTGCTAG` — result for “fitted relative affinity”: -0.258 z-score.
For `GACGAACTGGGATATCGAGACGTGCTA`, “fitted relative affinity” read -0.295 z-score.
For `AAACAAATAAGCCTTACTTGGTGCTAG`, “fitted relative affinity” read -0.0866 z-score.
`TTAGAACTGAGTCTCGAATAGTGCTAG` — result for “fitted relative affinity”: 0.563 z-score.
For `TCAGGTTTCCTACTGCTTTAGTGCTAG`, “fitted relative affinity” read 0.582 z-score.
`GACGATCTCAGTCTCGAGGCGTGCTAG`: “fitted relative affinity” 0.743 z-score.
`CCATTTTTCTAGTCCAGACTGTGCTAG`: “fitted relative affinity” 1.07 z-score.
`TTAGGTTTCGTACTGCTTTAGTGCTAG`: “fitted relative affinity” 6.48 z-score.
`TTTTTTTTTTTTCTGATCCAGTGCTAG` — result for “fitted relative affinity”: 1.24 z-score.
`CACGGTCTCGGTTTCGGGACGTGCTAG`: “fitted relative affinity” 5.81 z-score.
Under “fitted relative affinity”, `AGTGTCTCCATCAGAGGAGAGTGCTAG` is recorded as -0.239 z-score.
For `TTAGGACTGGATTTTCGGTTAGTGCTA`, “fitted relative affinity” read 0.0699 z-score.
For `TTAGGTTTCGGTTTCGATTAGTGCTAG`, “fitted relative affinity” read 16.5 z-score.
For `GACGGTATCGGTTTCGTGACGTGCTAG`, “fitted relative affinity” read 8.82 z-score.
`GCATTTTTTTTTTCTACTTCGTGCTAG`: “fitted relative affinity” 1.85 z-score.
Under “fitted relative affinity”, `TTCATTTTCCAAATGCCCTCGTGCTAG` is recorded as 0.481 z-score.
For `CTGTTTCTGTGTCACAGAGGGTGCTAG`, “fitted relative affinity” read 2.66 z-score.
Under “fitted relative affinity”, `TTAGATCTCAGCTTCGATTAGTGCTAG` is recorded as 0.0329 z-score.
`GACGATTTCGGTTATCGAGACGTGCTA`: “fitted relative affinity” 2.05 z-score.
For `GACGGGTTCGGTATCGGGACGTGCTAG`, “fitted relative affinity” read 1.82 z-score.
`TCAATTTTCTAAATGCCACTGTGCTAG`: “fitted relative affinity” 0.116 z-score.
`TTAGGACTGGGGACTGAGTTAGTGCTA`: “fitted relative affinity” -0.218 z-score.
For `GACGATATCGGGAGTGGAGACGTGCTA`, “fitted relative affinity” read 0.451 z-score.
`TTAGATATCAGTCTAGATTAGTGCTAG` — result for “fitted relative affinity”: -0.0312 z-score.
Under “fitted relative affinity”, `TTAAGTCTCGGACTGGGTTAGTGCTAG` is recorded as 1.68 z-score.

Set 4
Target: Fragile X messenger ribonucleoprotein 1, C-terminal low-complexity region (Fmr1, Mus musculus, UniProt P35922)
Technique: RNA Bind-n-Seq
Form: RNA
Matrix: in vitro
Concentration: 200 nM
Setting: whole 134-nt RNA, ends assumed
Together with: 150 mM LiCl
Relative to: input library
Direction: higher = stronger binding
Library: 7-deaza-guanosine replaces G
For `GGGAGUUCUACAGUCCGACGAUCUCCUGUGCUACACAUCGUAUGUACCGAAUCGGGGUUUUUGGGGAAAGGGGAAAAAGGGGAAAGUAUUAUGUUACGCCGUUCGGAUCUGCAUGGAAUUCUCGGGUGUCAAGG`, the log2 enrichment was -0.553.
With `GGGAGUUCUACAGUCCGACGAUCCCUCAAGUCCUGUGCUACACAUCGUAUGUACCGAAUCGGUUGGUUGGUUGGGGAAAGUAUUAUGUUACGCCGUUCGGAUCUGCACUUCCAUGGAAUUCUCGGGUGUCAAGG` the log2 enrichment was -0.0568.
`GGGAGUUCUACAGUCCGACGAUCAAGUCCUGUGCUACACAUCGUAUGUACCGAAUCGGGGCCCCGGGCCCCGGCCCCGGGAAAGUAUUAUGUUACGCCGUUCGGAUCUGCACUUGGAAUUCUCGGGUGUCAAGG` gave a log2 enrichment of -2.96.
`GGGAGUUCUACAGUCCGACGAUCAAGUCCUGUGCUACACAUCGUAUGUACCGAAUCGGGGCCCGGGCCCGGGCCCGGGGAAAGUAUUAUGUUACGCCGUUCGGAUCUGCACUUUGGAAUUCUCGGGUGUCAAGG` gave a log2 enrichment of -2.33.
`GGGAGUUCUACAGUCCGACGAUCCCUCAAGUCCUGUGCUACACAUCGUAUGUACCGAAUCGGUGGUGGGGUGGGGAAAGUAUUAUGUUACGCCGUUCGGAUCUGCACUUCCAGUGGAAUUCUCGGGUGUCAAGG` gave a log2 enrichment of 0.304.
`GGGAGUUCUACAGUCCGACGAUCCAAGUCCUGUGCUACACAUCGUAUGUACCGAAUCGGUUUUUUUGGUUUGGUUUGGAAAGUAUUAUGUUACGCCGUUCGGAUCUGCACUUCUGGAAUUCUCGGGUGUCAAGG` has a log2 enrichment of -2.08.
With `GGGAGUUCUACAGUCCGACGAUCUGGGAGGUGGAUUUUGUUUAUUUUUUUAGCUCAUUUCCAGGGGUGGGAAUUUUUUUUUAAUAUGCGUCAUGAAUAAAGUUGUUUUUGAAAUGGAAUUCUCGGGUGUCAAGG` the log2 enrichment was 0.0692.
For `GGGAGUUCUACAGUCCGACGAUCACCAUGCAGGUGGGCAUCUUUGGGAAGUGGGGCAAGGGGGGGAUUGGGAGGGGGGUAACACUUUGGGAACAGGUGGUCCCAGGUCGUUUCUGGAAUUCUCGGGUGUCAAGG`, the log2 enrichment was 1.11.
`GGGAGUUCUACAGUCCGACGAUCCUCAAGUCCUGUGCUACACAUCGUAUGUACCGAAUCGGCCCGGCCCGGGCCCGGAAAGUAUUAUGUUACGCCGUUCGGAUCUGCACUUCCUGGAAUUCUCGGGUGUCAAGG` has a log2 enrichment of -1.41.
`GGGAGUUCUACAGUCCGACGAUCCACAGACAACACGCACCCACGCAGACACAGAGGGAAGGGGUUGGGAUGGGGACAGGGUGCACAGCAGGGCGGGGUAGGACCCCAGCCCCUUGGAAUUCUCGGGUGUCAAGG` has a log2 enrichment of 0.538.
`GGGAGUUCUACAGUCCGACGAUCCCUGCUUUUGGGGGUGACCGCCGGAGCGCGGCGUGAGCCCUCCCCCUUGGGAUCCCGCAGCUGACCAGUCGCGCUGACGGACAGACAGACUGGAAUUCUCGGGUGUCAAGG` gave a log2 enrichment of -3.74.

For quick reference, copied from above (set 1):
The E-score of `ATTTGTGC` is reported as -0.0151.
The E-score of `AAGCCAAA` is reported as 0.07.
`AGAAGTAA` has an E-score of -0.0645.
For `GGGATACA`, the E-score was -0.115.
With `AAATAGAA` the E-score was -0.0041.
`GGGCCTAC` gave an E-score of -0.0682.
The E-score of `CGTACTAA` is reported as 0.0204.
For `GGTTGGAC`, the E-score was -0.00176.
`AATGTATG` gave an E-score of -0.081.
`CCGCTTCC` has an E-score of 0.0744.
`TCGGTTCA` gave an E-score of 0.0706.
`CATATAAC` has an E-score of -0.095.
With `ATGTCGCC` the E-score was -0.132.
